# Assay results of several laboratories.
# Each numbered part is a random draw from the data of one study; scales do not carry over between parts. Positions count from the first letter of the parent shown.

# Sample 1 — method: protein-binding microarray; form: double-stranded DNA, one strand shown; sample: in vitro; concentration: 250 nM; notes: 60-bp whole probe; added: salmon DNA 0.4 mg/ml; relative to: random background probes; reading: higher = stronger binding; constant ends, left off below: GCCTAGCAC … GTCTTGATTCGCTTGACGCTGCTG
# Target: Interferon regulatory factor 7, full length, phosphomimetic (IRF7, Homo sapiens, UniProt Q92985, residues 1-503, S101K/S471D/S472D/S475D/S476D/S477D/S483D/S484D/S487D)
# Target sequence (chain): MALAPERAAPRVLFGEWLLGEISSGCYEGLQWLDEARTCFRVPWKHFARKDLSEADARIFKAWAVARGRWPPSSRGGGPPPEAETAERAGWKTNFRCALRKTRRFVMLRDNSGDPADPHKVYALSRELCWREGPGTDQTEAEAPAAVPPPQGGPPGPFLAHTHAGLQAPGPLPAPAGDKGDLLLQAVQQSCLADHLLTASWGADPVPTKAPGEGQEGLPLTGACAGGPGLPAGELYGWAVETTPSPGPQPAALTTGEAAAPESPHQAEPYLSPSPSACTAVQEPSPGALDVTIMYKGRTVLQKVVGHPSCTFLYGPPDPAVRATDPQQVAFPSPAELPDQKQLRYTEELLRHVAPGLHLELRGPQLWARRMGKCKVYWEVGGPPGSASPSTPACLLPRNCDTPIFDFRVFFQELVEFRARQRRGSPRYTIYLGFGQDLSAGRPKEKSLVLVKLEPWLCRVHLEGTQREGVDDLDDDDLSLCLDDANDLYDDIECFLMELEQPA
Sequence,log fluorescence
GTGTATATACTATATGCATGTGTGCTA,0.233 z-score
GACGGTTTCCTTATCCTTACGTGCTAG,2.93 z-score
TCATGTGCCCATCTCTGACTGTGCTAG,-0.473 z-score
GACGATTTCAGTATCGAGCCGTGCTAG,0.102 z-score
GACGATATCATTCTCGAGACGTGCTAG,0.242 z-score
CTACACATCTCACTCTAATCGTGCTAG,0.359 z-score
GACGGTATCGACTTTCCGGACGTGCTA,1.42 z-score
TCAGTCTTCACTCTGCTACTGTGCTAG,-0.14 z-score
TTTGCTTTCTTTTATGCTCTGTGCTAG,0.437 z-score
TTAAATTTCGGGTTTCGATTAGTGCTA,8.85 z-score
TTAGATATCTTTTTCCTAATGTGCTAG,1.38 z-score
GGTGTCTAGGTTAGGGATTAGTGCTAG,-0.322 z-score
TTAGGACTGGATCTCGGTTAGTGCTAG,0.275 z-score
GCCCCACCCACTCTGGCCCCGTGCTAG,0.814 z-score
TTAGGTCTGGACTTTCGGTTAGTGCTA,0.562 z-score
TTAGATATCAGTTTTGATTAGTGCTAG,0.878 z-score
GCCGATATCAGTATCGAGACGTGCTAG,0.473 z-score
TTAGGATTCGGTCTCGGTTAGTGCTAG,3.27 z-score
GACGATCTCAGACCGGAGACGTGCTAG,-0.221 z-score
TTAGAACTGAATTTCGATTAGTGCTAG,1.09 z-score
TAATTTCCATTTTCTAAATGCGTGCTA,4.23 z-score
TTTTCATTTTCTTTAACTCAGTGCTAG,3.17 z-score
AGAAACTGTGAGGAGGGGAAGTGCTAG,-0.115 z-score
AAATGTGTTAGAAACAGGTTGTGCTAG,-0.338 z-score
TCATACATGCATATAGTACTGTGCTAG,0.169 z-score

# Sample 2 — method: RNA Bind-n-Seq; form: RNA; sample: in vitro; concentration: 200 nM; notes: whole 134-nt RNA, ends assumed; added: 150 mM LiCl; relative to: input library; reading: higher = stronger binding; library: 7-deaza-guanosine replaces G
# Target: Fragile X messenger ribonucleoprotein 1, C-terminal low-complexity region (Fmr1, Mus musculus, UniProt P35922)
# Constant ends, left off below: GGGAGUUCUACAGUCCGACGAUC … UGGAAUUCUCGGGUGUCAAGG
Sequence,log2 enrichment
UCCUGUGCUACACAUCGUAUGUACCGAAUCGGGAAAAAAAGGGAAAAAAAGGGAAAGGGAAAGUAUUAUGUUACGCCGUUCGGAUCUGCA,0.38
AAGUCCUGUGCUACACAUCGUAUGUACCGAAUCGGGGUUUGGGGUUUGGGGAGGGGAAAGUAUUAUGUUACGCCGUUCGGAUCUGCACUU,-0.614
GCAGGAAGUAAAAACAAAUGGAAAUGCUUCGGAUAGUGGCAGGGAAAGGGGUUGCUAAGGAAAGGGUGGGAUGGGAGUGGGUAAAGAGUU,1.31
AAGUCCUGUGCUACACAUCGUAUGUACCGAAUCGGUUUGGAAAAAAAGGAAAAAGGAAAGUAUUAUGUUACGCCGUUCGGAUCUGCACUU,-2.01
UAACUUUAGAGGAGGAUCUGAUGGAUAUGGCAGUGGACGUGGAUUUGGGGAUAGCUAUAAUGGGUAUGGAGGAGGACCUGGAGGUGGCAA,0.401
CCUGUGCUACACAUCGUAUGUACCGAAUCGGGGAAAAAAAGGGGUUUGGGGUUUUUGGGGAAAGUAUUAUGUUACGCCGUUCGGAUCUGC,-1.19
CACAGACAACACGCACCCACACAGACACAGAGGGAAGGGGUUGGGAUGGGGACAGGGUGCACAGCAGGGCGGGGUAGGACCCCAGCCGCU,-0.362
AGUCCUGUGCUACACAUCGUAUGUACCGAAUCGGCCCCCGGCCCCCGGGCCCCCGGGAAAGUAUUAUGUUACGCCGUUCGGAUCUGCACU,-0.794
CACAGACAACACGCACCCACACAGACACAGAGGGAAGUGGUUGGGAUGGGGACAGGGUGCACAGCAGGGCGGGGUAGGACCCCAGCCCCU,-1.44
AAGUCCUGUGCUACACAUCGUAUGUACCGAAUCGGCCCCGGGGCCCCGGGGCCCCGGAAAGUAUUAUGUUACGCCGUUCGGAUCUGCACU,-2.13
CUCAAGUCCUGUGCUACACAUCGUAUGUACCGAAUCGGGCCGGCCGGGGCCGGGAAAGUAUUAUGUUACGCCGUUCGGAUCUGCACUUCC,0.864

# Sample 3 — method: DHFR PCA, deep sequencing; sample: yeast; added: (+)-ABA 0 µM; relative to: wild-type fitted maximum; reading: higher = stronger binding
# Target: ABI1, truncated, D143A, DHFR fusion (Arabidopsis thaliana)
# Notes: methotrexate growth selection, single substitutions
# Starting sequence: PYL1, truncated, DHFR fusion (Arabidopsis thaliana); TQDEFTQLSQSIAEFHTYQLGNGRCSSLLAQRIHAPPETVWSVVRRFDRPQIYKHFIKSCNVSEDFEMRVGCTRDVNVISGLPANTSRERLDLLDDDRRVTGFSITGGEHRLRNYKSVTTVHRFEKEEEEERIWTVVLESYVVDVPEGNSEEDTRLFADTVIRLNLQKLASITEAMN; partner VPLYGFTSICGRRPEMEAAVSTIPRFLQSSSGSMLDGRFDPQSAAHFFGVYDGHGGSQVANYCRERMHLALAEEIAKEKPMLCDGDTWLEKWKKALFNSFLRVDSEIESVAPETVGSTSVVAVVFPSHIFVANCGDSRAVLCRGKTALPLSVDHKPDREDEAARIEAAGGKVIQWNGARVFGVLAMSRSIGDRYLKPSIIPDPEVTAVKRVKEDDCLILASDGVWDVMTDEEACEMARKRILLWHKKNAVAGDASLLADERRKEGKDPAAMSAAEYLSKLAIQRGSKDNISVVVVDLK
Substitution,relative binding score
F124V,29.1%
L8K,-7.55%
W41S,1.23%
T135M,-9.26%
L29M,-0.986%
E38I,0.79%
T17D,-0.465%
M176T,9.92%
E38H,1.87%
R155Y,-1.97%
L169Y,-7.7%
I79F,22.3%
V143C,45.5%
G148D,-0.495%
L166E,8.73%

# Sample 4 — method: RNA Bind-n-Seq; form: RNA; sample: in vitro; concentration: 365 nM; relative to: no-protein control; reading: higher = stronger binding
# Target: RNA binding protein fox-1 homolog 2, RRM domain, GST-SBP tag (RBFOX2, Homo sapiens, UniProt O43251-10, residues 100-194)
# Notes: natural RNA segment, single round, ends assumed
# Constant ends, left off below: GGGAGUUCUACAGUCCGACGAUC … UGGAAUUCUCGGGUGCCAA
# Target sequence (chain): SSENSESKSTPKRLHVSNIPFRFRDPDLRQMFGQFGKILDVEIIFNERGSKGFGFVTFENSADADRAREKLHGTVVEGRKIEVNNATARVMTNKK
Sequence,RBNS enrichment (R)
AAAGGUAUGUAACUUCUUCAUUUGAAGGAUAAGCUGGUUUGUGUUAAGCAGUAUAGUAUUGGUUGGGUCAUUUGCAUCAUAUCGUUAGCAUUUAUUUGGUGGCAGAAUGU,1.68
CUGUCCCUCUGCAGAGGGAUACCUUCCAAUAGUAAAUUAUCUGGUUCCUCACUGAAACAAGUUAUUUUUGCUUCAUAUAGUCAGAGUCAGACUGACAUGAUAAAAUAUCA,0.256
CACAGGUGAGGCUUUUUUCAGAUCAGUGGCCACCUCUUUUAGUCUGAGGAAUCCCAGAAGCAACCAGAGACCAUCAUAAAUGUCAAAUACCGGAGUCUACCCUGCUUCAC,0.455
UAAGGUAAGGACGGCCGUGUUUUGAGGGUCUUCCUUUCCUAUGAGUGCUUUUUCUUUUCUUCUGUUCAAAGAGGUCAUAUUACAAGGUUUUUUGAAAUUGUGAAUUCUAA,1.29
GAAGCCCUGGCUGCCAUCCCAGGAGCCCUGGCUGUGAACCUGGGAGUCCUAGGUAUGAACCCAAAAGCCCUGGGUACGGUUCAAAGAGCCCCGAAUUUGAAUCUCAAAGU,0.358
CAUUGUCUGUGAAGUGAGACCUUCCUUUUACUUUUCUUCUAUUGCCUCUGAGAGCAUCAGGCCUAGAGGCCUGACUGCCAAGCCAUGGGUAGCCUGGGUGUAAAACCUGG,0.293
UUGGCAGAGAUGGGGACUUGAGUGACCAUGUUGGGUUCCCUUCUUCUCCUUCUUGCAGGACACAAAUGAUAUCGCUUAGUCAUAAGUGUGGUAGACUGGAUCCUGACCAG,0.564
ACAUAUCUUUACAGCUUAUUUGAAUGUGAGAAUUGGAAUAUUACCUGUAUAUAUCAGAUGAGCAGUGAUGACUUCUAUAACUGUUGGCUUUAAUAUUUUUCAUUUAGCUA,0.442
UUUGUUCUGUUUUUGUUUGUUUGUUUGUUUGUUUUUGUUUGUUUUGUGUUUUGUUUUUUACAAUACACAGUUCAGACAACAUCUUUUUACAGAUUUUAAAGCUUCAUUUA,1.79
CUUGUCCGUUCGUCUUACCAUCUAACCAAACAAAAGACAAAGAAAUUGUUGUCCUCCAACUCAGCUUUUUUUUUUUUUUUUUCCUGUUUGGGUGAAAGUGGUUCUAGAAA,0.323
AGCCGCCUGCACAGCCUGGAACCUGCAUUGAUACUGGGGCAGGAAUUCGCCCUCACAGAGGGCGUGUGGUCCACGAAGCUGUCUACAGGGGAGGCUGCAGGCAGGAAGCA,1.03
UACAAUAAACAUUUGAAGGCAGCAUAGGAUGGCAGACAGUAGGAACAUUGUUUCACUUGGCGGCAUGUUUUUGAAACCUGCUUUAUAGUAACUGGGUGAUUGCCAUUGUG,0.741

# A few entries again (sample 4):
Sequence,RBNS enrichment (R)
UUGGCAGAGAUGGGGACUUGAGUGACCAUGUUGGGUUCCCUUCUUCUCCUUCUUGCAGGACACAAAUGAUAUCGCUUAGUCAUAAGUGUGGUAGACUGGAUCCUGACCAG,0.564
CUUGUCCGUUCGUCUUACCAUCUAACCAAACAAAAGACAAAGAAAUUGUUGUCCUCCAACUCAGCUUUUUUUUUUUUUUUUUCCUGUUUGGGUGAAAGUGGUUCUAGAAA,0.323
CUGUCCCUCUGCAGAGGGAUACCUUCCAAUAGUAAAUUAUCUGGUUCCUCACUGAAACAAGUUAUUUUUGCUUCAUAUAGUCAGAGUCAGACUGACAUGAUAAAAUAUCA,0.256
CACAGGUGAGGCUUUUUUCAGAUCAGUGGCCACCUCUUUUAGUCUGAGGAAUCCCAGAAGCAACCAGAGACCAUCAUAAAUGUCAAAUACCGGAGUCUACCCUGCUUCAC,0.455
UACAAUAAACAUUUGAAGGCAGCAUAGGAUGGCAGACAGUAGGAACAUUGUUUCACUUGGCGGCAUGUUUUUGAAACCUGCUUUAUAGUAACUGGGUGAUUGCCAUUGUG,0.741
CAUUGUCUGUGAAGUGAGACCUUCCUUUUACUUUUCUUCUAUUGCCUCUGAGAGCAUCAGGCCUAGAGGCCUGACUGCCAAGCCAUGGGUAGCCUGGGUGUAAAACCUGG,0.293
